Assay results gathered from unrelated publications.
Protocols differ between the studies behind these lines. “And” joins repeats or separate records; there may be more than shown. ± marks the error that the study gave.
UniProt Q8BLF1, sequence (whole entry, looked up): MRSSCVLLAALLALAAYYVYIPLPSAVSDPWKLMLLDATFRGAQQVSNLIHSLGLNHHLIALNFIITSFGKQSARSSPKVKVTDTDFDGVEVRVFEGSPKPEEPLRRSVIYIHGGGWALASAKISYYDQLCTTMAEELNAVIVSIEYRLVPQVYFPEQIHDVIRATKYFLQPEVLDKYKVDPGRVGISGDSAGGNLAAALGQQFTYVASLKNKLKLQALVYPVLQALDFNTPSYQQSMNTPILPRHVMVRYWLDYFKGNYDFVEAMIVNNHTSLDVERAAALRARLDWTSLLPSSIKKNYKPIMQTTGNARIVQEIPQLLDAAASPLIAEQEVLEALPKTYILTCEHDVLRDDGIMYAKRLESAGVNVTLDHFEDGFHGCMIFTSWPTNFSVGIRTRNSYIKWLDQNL
UniProt Q9UH17, sequence (whole entry, looked up): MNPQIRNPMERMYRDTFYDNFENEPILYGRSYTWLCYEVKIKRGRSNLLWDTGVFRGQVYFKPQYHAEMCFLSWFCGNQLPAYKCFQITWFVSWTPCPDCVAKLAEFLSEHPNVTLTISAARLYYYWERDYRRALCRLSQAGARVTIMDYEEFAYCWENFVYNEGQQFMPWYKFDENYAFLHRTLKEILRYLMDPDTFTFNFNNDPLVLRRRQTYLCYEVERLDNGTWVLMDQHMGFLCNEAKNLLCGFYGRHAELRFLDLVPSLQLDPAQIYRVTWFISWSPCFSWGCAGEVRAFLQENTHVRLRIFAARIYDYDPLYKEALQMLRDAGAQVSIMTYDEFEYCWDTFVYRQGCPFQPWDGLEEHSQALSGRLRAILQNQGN
UniProt P54760, sequence (whole entry, looked up): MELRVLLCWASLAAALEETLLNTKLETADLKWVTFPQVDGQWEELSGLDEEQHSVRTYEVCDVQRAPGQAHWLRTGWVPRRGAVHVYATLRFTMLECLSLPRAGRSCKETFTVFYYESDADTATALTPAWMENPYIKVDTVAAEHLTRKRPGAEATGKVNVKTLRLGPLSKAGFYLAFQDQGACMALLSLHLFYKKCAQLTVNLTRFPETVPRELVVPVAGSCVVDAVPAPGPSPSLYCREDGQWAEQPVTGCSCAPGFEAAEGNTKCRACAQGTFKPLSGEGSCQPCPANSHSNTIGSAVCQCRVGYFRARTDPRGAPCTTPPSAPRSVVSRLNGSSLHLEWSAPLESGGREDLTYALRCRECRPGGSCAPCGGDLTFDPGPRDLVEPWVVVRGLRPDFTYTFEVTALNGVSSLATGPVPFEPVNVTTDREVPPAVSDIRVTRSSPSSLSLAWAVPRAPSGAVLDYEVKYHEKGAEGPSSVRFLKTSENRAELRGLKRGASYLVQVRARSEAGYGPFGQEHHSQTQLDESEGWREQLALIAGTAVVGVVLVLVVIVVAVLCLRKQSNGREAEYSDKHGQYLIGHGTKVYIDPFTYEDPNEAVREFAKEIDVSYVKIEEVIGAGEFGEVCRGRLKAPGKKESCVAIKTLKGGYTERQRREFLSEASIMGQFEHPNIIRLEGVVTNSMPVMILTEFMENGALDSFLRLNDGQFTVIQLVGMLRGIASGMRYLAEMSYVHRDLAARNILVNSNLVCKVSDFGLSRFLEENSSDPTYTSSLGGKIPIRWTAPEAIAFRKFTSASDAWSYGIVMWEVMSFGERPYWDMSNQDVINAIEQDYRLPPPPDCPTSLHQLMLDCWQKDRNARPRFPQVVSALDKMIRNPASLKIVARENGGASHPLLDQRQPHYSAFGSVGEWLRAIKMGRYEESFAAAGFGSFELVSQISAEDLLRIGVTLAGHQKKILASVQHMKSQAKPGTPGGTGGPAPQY
UniProt P33533, sequence (whole entry, looked up): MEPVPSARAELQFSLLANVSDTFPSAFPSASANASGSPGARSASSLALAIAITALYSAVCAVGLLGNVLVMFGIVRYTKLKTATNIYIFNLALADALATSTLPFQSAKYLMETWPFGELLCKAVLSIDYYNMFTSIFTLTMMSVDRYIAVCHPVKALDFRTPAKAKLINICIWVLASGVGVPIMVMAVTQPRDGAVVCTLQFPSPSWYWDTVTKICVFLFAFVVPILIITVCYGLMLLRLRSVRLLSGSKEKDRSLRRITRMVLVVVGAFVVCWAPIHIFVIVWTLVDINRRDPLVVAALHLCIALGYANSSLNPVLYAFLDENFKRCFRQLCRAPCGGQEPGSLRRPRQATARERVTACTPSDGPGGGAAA
UniProt P46734, sequence (whole entry, looked up): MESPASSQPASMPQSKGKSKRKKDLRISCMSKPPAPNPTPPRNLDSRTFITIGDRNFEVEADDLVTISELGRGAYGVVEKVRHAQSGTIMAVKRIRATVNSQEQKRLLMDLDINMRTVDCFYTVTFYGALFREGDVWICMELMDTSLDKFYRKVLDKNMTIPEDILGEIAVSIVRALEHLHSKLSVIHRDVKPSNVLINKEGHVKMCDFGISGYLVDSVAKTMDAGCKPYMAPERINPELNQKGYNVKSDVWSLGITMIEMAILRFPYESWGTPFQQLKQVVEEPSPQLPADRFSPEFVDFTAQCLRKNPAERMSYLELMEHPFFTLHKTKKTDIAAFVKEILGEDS
UniProt P21731, sequence (whole entry, looked up): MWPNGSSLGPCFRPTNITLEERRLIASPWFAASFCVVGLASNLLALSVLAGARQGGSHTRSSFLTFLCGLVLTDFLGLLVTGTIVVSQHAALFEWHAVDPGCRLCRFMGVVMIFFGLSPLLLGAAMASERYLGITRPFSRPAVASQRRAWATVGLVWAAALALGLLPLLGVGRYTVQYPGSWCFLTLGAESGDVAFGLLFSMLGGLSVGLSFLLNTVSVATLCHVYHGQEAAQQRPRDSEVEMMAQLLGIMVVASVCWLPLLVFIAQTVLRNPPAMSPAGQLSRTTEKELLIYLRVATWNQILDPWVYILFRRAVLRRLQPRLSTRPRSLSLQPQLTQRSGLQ
UniProt P35348, sequence (whole entry, looked up): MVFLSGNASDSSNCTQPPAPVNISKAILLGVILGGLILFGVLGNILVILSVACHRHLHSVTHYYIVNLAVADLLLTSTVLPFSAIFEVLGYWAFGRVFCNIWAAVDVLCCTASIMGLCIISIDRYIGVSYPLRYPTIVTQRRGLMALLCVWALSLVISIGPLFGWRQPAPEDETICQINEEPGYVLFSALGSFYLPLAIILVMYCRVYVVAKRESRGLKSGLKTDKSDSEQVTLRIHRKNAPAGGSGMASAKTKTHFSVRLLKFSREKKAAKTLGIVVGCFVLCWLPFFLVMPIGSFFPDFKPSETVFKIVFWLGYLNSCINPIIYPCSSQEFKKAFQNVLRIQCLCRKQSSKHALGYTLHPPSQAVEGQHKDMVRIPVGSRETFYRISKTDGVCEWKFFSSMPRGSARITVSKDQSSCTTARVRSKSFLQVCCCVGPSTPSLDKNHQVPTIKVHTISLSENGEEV

`COc1ccccc1-c1n[nH]c2nc(NC3CCN(C(=O)Cc4ccc(F)cc4F)CC3)ncc12` gave a relative binding of 0.45 (mitogen-activated protein kinase 9 (Leishmania donovani, UniProt A0A3Q8IB74); affinity bead binding, bead competition pull-down; Leishmania donovani extract; 10 µM, analogue affinity beads; reference: vehicle).
`C=CC(=O)Nc1cc(-c2ccc(C(=O)N3CCCC(O)(CC)C3)cc2)ccc1F` (stereo not shown) gave an unmodified protein of 65% and 63% (DNA dC->dU-editing enzyme APOBEC-3B, C-terminal domain (Homo sapiens, UniProt Q9UH17); covalent adduct, intact protein MS; 125 µM, 3 h, 5-fold molar excess).
`CC(C)(C)C(=O)OCOP(=O)(OCOC(=O)C(C)(C)C)C1CCCN(O)C1=O` (stereo not shown) has a log TGI of over -4 log M (SF-295).
With `O=C1NC(=O)c2c1c1cc(F)c[n+]3c1c1c2c2cc(O)ccc2[n]1[Ru-4]312([N]=C=S)[S+]3CC[S+]1CC[S+]2CC3` (stereo not shown) the remaining activity was 111% (EPHB4 (Homo sapiens, UniProt P54760); enzyme activity; 100 nM, human enzyme, with: 10 µM ATP; reference: untreated).
`CS(C)(=O)=Nc1ccc(-c2ccc(-c3nc4cc(O[C@@H]5CO[C@H]6[C@@H]5OC[C@H]6O)[nH]c4cc3F)cc2)cc1` gave an inhibition of 9% (kainate receptor; binding; 10 µM).
`CC(C)[C@H]1NC(=O)C[C@H]2/C=C/CCSSC[C@@H](NC1=O)C(=O)N[C@H](Cc1cccc3ccccc13)C(=O)NCC(=O)O2` has an inhibition of -1% (ALK (Homo sapiens, UniProt Q9UM73, C1156Y); enzyme activity, inhibitor; 10 µM).
With `CN(C)[C@H]1C[C@@]23CC[C@@]4(O2)C(=CC[C@]2(C)[C@@H](c5ccc6ccncc6c5)CC[C@H]24)C=C3[C@@H](O)[C@@H]1O` the inhibition was 3% (MAP2K3 (Homo sapiens, UniProt P46734); ATP probe labelling, inhibitor, KiNativ profiling; 0.1 µM).
With `CN1CCC[C@@H]1C(=O)N[C@@H](Cc1ccc(-c2ccccc2)cc1)B(O)O` the IC50 ratio was 8 (20S proteasome (Plasmodium falciparum, UniProt A0A5K1K7U1+Q8IJT1); reference: Tris over HEPES buffer).
With `N[C@H](C(=O)N1CCCC1)C1CCN(c2nccc3c(-c4ncc(Cl)cc4Cl)cccc23)CC1` the response was 5% (ADRA1A (Homo sapiens, UniProt P35348); functional response, agonist; 10 µM).
With `Cc1sc2c(c1C)C(c1ccc(Cl)cc1)=NC(CC(=O)OC(C)(C)C)c1nnc(C)n1-2` (stereo not shown) the specific binding was 119% (TBXA2R (Homo sapiens, UniProt P21731); antagonist radioligand binding; 1 µM).
The tumour uptake of `CC[C@H](C)[C@H](NC(=O)[C@H](CO)NC(=O)[C@H](Cc1ccc(O)cc1)NC(=O)[C@H](Cc1ccc(O)cc1)NC(=O)[C@H](CC(N)=O)NC(=O)CNC(=O)[C@H](CO)NC(=O)[C@H](Cc1ccc(O)cc1)NC(=O)[C@H](CO)NC(=O)[C@H](CO)NC(=O)[C@H](CC(N)=O)NC(=O)COCCOCCNC(=O)CN1CCN(CC(=O)O)CCN(CC(=O)O)CCN(CC(=O)O)CC1)C(=O)N[C@@H](CC(C)C)C(N)=O` [copper-64 labelled] is reported as 12.7 %ID/mL (dynamic PET; KPC mouse, pancreatic cancer model, tumor; intravenous, 0.6 min, 49 days after tamoxifen).
The survival of `Cc1cc(C(=O)Nc2nc3cccc(C)c3n2[C@H]2CCCCN(C(=O)/C=C/CN(C)C)C2)ccn1` is reported as 102% and 107% and 91.5% and 103% and 94.3% (Trypanosoma brucei brucei; 2T1 wild type; 0.00013 µM).
`O=C1NC2(CC2)COc2ncc(F)cc2[C@H]2COCCN2c2ccn3ncc1c3n2` has a total cholesterol of 2 ± 0.36 mmol/L (Sprague-Dawley rat, female, serum; oral, 2.5 mg/kg/day, 4 weeks daily, end of treatment).
With `CCCc1cc2cc(-n3nc(CCC)c4c3CC(C)(C)CC4=O)cc(N3CCC(O)CC3)c2c(=O)[nH]1` the selectivity ratio was over 60 fold (HSP90AB1 (Homo sapiens, UniProt P08238); fluorescence polarization; reference: apparent KD Hsp90α over apparent KD HSP90AB1).
`Oc1ccc(C[C@@H]2CN([C@H](Cc3ccc4ccccc4c3)CN3CCC[C@H]3CN3CCNC[C@@H]3Cc3ccc4ccccc4c3)CCN2CCc2ccc(Cl)c(Cl)c2)cc1` has a remaining binding of 86.2% (Oprd1 (Rattus norvegicus, UniProt P33533); radioligand binding; rat brain membranes; 500 nM, pH 7.5, 25 °C, with: 2 nM [3H]DPDPE).
`CC(C)CC(O)(CC(C)C)c1cn(C(=O)N2CCCC2)nn1` gave an activity ratio-of-ratios of 1.1 and 1.24 and 1.57 and 0.99 and 1.07 and 1.09 (Neutral cholesterol ester hydrolase 1 (Mus musculus, UniProt Q8BLF1); probe labelling, inhibitor, measured: Aadacl1; mouse, brain; i.p., 0.8 mg/kg, 4 h, single peptide; reference: treated over vehicle mice, lower = stronger inhibition).

For quick reference, copied from above:
With `CN1CCC[C@@H]1C(=O)N[C@@H](Cc1ccc(-c2ccccc2)cc1)B(O)O` the IC50 ratio was 8 (20S proteasome (Plasmodium falciparum, UniProt A0A5K1K7U1+Q8IJT1); reference: Tris over HEPES buffer).
